Measured values of several laboratories.
Each numbered part is a random draw from the data of one study; scales do not carry over between parts. pIC50: −log10 of the molar value.
Sequence of UniProt Q9NSA0 (whole entry, looked up): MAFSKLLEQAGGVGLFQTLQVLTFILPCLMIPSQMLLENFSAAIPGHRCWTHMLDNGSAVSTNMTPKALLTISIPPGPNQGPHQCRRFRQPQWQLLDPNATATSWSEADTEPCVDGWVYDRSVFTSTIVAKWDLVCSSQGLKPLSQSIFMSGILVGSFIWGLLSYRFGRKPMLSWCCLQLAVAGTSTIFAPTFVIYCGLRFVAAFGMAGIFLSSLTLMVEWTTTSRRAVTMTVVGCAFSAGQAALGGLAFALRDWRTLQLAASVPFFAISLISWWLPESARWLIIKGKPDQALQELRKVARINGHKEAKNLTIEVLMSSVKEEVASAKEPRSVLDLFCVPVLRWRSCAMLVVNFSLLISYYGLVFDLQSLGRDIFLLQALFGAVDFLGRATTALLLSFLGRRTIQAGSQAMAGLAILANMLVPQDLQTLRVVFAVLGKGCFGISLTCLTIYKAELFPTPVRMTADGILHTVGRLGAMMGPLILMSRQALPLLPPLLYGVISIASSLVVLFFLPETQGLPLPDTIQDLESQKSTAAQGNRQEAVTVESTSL

Series 1 — method: protein binding microarray; form: double-stranded DNA, one strand shown; matrix: in vitro; concentration: not given; relative to: not given; reading: higher = stronger binding
Target: Histone acetyltransferase KAT6A, winged helix 1, GST fusion (KAT6A, Homo sapiens, UniProt Q92794, residues 1-85)
Notes: 8-mer, flanks averaged, mean of 2 arrays, mostly near background
Target sequence (chain): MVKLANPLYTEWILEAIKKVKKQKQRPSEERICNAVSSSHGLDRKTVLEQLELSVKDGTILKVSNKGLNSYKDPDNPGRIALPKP
`CTAAACTC` gave an E-score of -0.0953.
For `AGTTGCTG`, the E-score was -0.0416.
With `ACGCAGCC` the E-score was 0.128.
With `AAAACTTG` the E-score was -0.153.
`GTCAAATA` gave an E-score of -0.0997.
The E-score of `AATTGTTA` is reported as -0.0784.
The E-score of `AGTACACC` is reported as -0.136.
With `AGTGATAT` the E-score was -0.122.

Series 2 — mode: inhibitor; concentration: 20 µM
Target: Replicase polyprotein 1ab, nsp13 helicase (rep, Severe acute respiratory syndrome coronavirus 2, UniProt P0DTD1)
For `CN(CC[C@@H](Oc1ccc(-c2ccccc2)cc1)c1ccc(F)cc1)CC(=O)O`, the inhibition was 8.04%.
`O=C(O[C@@H]1C[C@@H]2C[C@H]3C[C@H](C1)N2CC3=O)c1c[nH]c2ccccc12` gave an inhibition of -0.31%.
`Cc1cc2c(OCC(CNC(C)(C)C)OC(=O)c3ccccc3)cccc2[nH]1` (centres unmarked) has an inhibition of 6.92%.
The inhibition of `C1=N/C2=N/c3ccc(OCCN4CCCC4)c(c3)COC/C=C/COCc3cccc(c3)C(=C1)N2` is reported as 17.2%.
The inhibition of `C[C@@]1(C(=O)N[C@@H](CCC(=O)O)C(=O)O)CCCN1C(=O)CN` is reported as 9.5%.
`COC(=O)[C@@H]1[C@H]2C[C@H]3c4[nH]c5ccccc5c4CCN3C[C@@H]2CC[C@@H]1O` has an inhibition of -3.73%.
With `Cc1cccc(/C=C/c2ccccc2)n1` the inhibition was 4.19%.
`CN1[C@@H]2CC[C@H]1CC(OC(c1ccccc1)c1ccc(Cl)cc1)C2` (some centres unmarked) gave an inhibition of 2.04%.
`CNC(=C[N+](=O)[O-])NCCSCc1ccc(CN(C)C)o1` gave an inhibition of 3.34%.
The inhibition of `CC#C[C@]1(O)CC[C@H]2[C@@H]3CCC4=CC(=O)CCC4=C3[C@@H](c3ccc(N(C)C)cc3)C[C@@]21C` is reported as -1.41%.
`CSCC[C@H](NC(=O)[C@H](CC(C)C)NC(=O)[C@@H](Cc1c[nH]c2ccccc12)NC(=O)[C@H](Cc1ccccc1)N(C)C(=O)[C@@H](Cc1c[nH]c2ccccc12)NC(=O)[C@@H](N)CCCN=C(N)N)C(N)=O` has an inhibition of 1.19%.
With `CC1(C)[C@@H]2C[C@@H](O)[C@@](C)(O)[C@H]1C2` the inhibition was 8.41%.
The inhibition of `NS(=O)(=O)c1cc2c(cc1C(F)(F)F)NCNS2(=O)=O` is reported as -2.85%.
`C[C@H]1CN(Cc2ccc(CC(=O)N3CCC(Nc4cccc(F)c4)CC3)cc2)CCN1` has an inhibition of 0.39%.
For `O=[N+]([O-])c1cc([N+](=O)[O-])c(/C=C/c2ccc(Cl)c(Cl)c2)cc1/C=C/c1ccc(Cl)c(Cl)c1`, the inhibition was 0.71%.
`O=C1c2ccccc2S(=O)(=O)N1CCCCN1CCN(c2ncccn2)CC1` gave an inhibition of 0.09%.
`CCOc1ccc2nc(SCCN3CCOCC3)[nH]c2c1` has an inhibition of 5.4%.
The inhibition of `CON` is reported as 2.7%.
`Nc1ccccc1C(=O)O` gave an inhibition of 1.7%.
The inhibition of `CCOC(=O)C1=C(C)NC(C)=C(C(=O)OCC)C1c1ccccc1/C=C/C(=O)OC(C)(C)C` is reported as 7.93%.
The inhibition of `O=C(/C=C/c1ccc2c(c1)OCO2)N1CCCCC1` is reported as 1.48%.
`CCOC(=O)[C@H](CCc1ccccc1)N[C@@H](C)C(=O)N1[C@H](C(=O)O)C[C@H]2CCCC[C@@H]21` has an inhibition of 7.75%.
With `c1ccc([C@H]2CN3CCSC3=N2)cc1` the inhibition was -2.09%.
`CCn1c2ccccc2c2cc(Nc3ccnc(NCCCN4CCOCC4)n3)ccc21` gave an inhibition of 31.1%.
`CC(C)C[C@H](NC(=O)[C@@H](O)[C@H](N)Cc1ccccc1)C(=O)O` gave an inhibition of -1.55%.

Series 3 — method: protein-binding microarray; form: double-stranded DNA, one strand shown; matrix: in vitro; concentration: not given; reading: higher = stronger binding
Target: Max-binding protein MNT, bHLH-zipper, MAX partner unstated (MNT, Homo sapiens, UniProt Q99583, residues 220-300)
Notes: k-mer, scored over probes, only values ≥0.25
Construct (chain): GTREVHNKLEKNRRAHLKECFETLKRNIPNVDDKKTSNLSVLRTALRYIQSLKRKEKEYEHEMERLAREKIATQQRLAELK
With `CACGCCTA` the E-score was 0.289.
The E-score of `AGCATGAT` is reported as 0.301.
`GCATGAGC` gave an E-score of 0.29.
For `TGCACGCA`, the E-score was 0.331.
`CGGCCCCA` gave an E-score of 0.284.
For `ACGTGACG`, the E-score was 0.395.

Series 4 — cell line: HEK-293T; read-out: pseudovirus infection; method: FDA-approved drug library screen; organism: VSV pseudotyped with SARS-CoV-2 spike; concentration: 10 µM; time: 16 h; relative to: vehicle-treated
With `COc1ccc(-c2ccc3cc(C(=O)O)ccc3c2)cc1C12CC3CC(CC(C3)C1)C2` the GFP-positive cells was 83%.
`CC(C)NCC(O)c1ccc(O)c(O)c1` (centres unmarked) gave a GFP-positive cells of 110%.
For `Cc1ccc(C)c(OCCCC(C)(C)C(=O)O)c1`, the GFP-positive cells was 107%.

Series 5 — read-out: enzyme activity; mode: inhibitor; concentration: 20 µM; notes: hit confirmation
Target: Replicase polyprotein 1ab, main protease (rep, Severe acute respiratory syndrome coronavirus 2, UniProt P0DTD1)
`O=C(Nc1ccc2c(O)cc(S(=O)(=O)O)cc2c1)Nc1ccc2c(O)cc(S(=O)(=O)O)cc2c1` gave an inhibition of 31.8%.
`C[n+]1ccc(/C=C/c2c[nH]c3ccccc23)cc1` has an inhibition of 6.4%.
`Nc1nc(-c2ccc(Cl)c(Cl)c2)c(-c2ccncc2)s1` has an inhibition of 76.3%.

Other studies, line by line
The ΔG of `OC[C@H]1O[C@@H](O[C@@H]2[C@@H](O)[C@H](O[C@@H]3[C@@H](O)[C@H](O[C@H]4[C@H](O)[C@@H](CO)OC(O)[C@@H]4O)O[C@H](CO)[C@H]3O)O[C@H](CO)[C@H]2O)[C@H](O)[C@@H](O)[C@@H]1O` (some centres unmarked) is reported as -25.7 kcal/mol (Bacteroides thetaiotaomicron; binding, ITC; pH 7.0, 25 °C, middle domain).
`CC(C)n1cnc(-c2ccc(F)cc2)c1-c1ncc(C(=O)Nc2ccc(N3CCN(C)CC3)cc2)[nH]1`: “patients with neoplasm TEAE” 0% (phase 2a clinical trial; patients with idiopathic pulmonary fibrosis; 60 mg once daily, all grades, SOC neoplasms benign, malignant, unspecified).
The AUC ratio of `COC(=O)Nc1c(N)nc(-c2nn(Cc3ccccc3F)c3ncc(F)cc23)nc1N` is reported as 0.957 (healthy men; oral, dose not given, multiple dose, added: sildenafil 50 mg; relative to: with over without sildenafil).
Under “relative specific activity”, `[Mn+2]` is recorded as 0.27 (uncharacterized protein (Bacteroides thetaiotaomicron, UniProt Q8A4G9); phosphatase activity, activator, phosphate release; 5 mM, EDTA-treated enzyme, added: substrate 9 mM; relative to: activity with Mg2+).
With `C[C@H]1O[C@@H](O[C@H]2[C@@H](O)C[C@H](O[C@H]3[C@@H](O)C[C@H](O[C@H]4CC[C@@]5(C)[C@H](CC[C@@H]6[C@@H]5CC[C@]5(C)[C@@H](C7=CC(=O)OC7)CC[C@]65O)C4)O[C@@H]3C)O[C@@H]2C)C[C@H](O)[C@@H]1O` the nuclei count was 1.74 z-score (mouse MPNST tumor cells; high-content nuclear imaging, refers to: cell number; 10 µM, 12 h, mean of 2 replicates; relative to: plate mean, higher = more cells).
`O=C1C(CC[S+]([O-])c2ccccc2)C(=O)N(c2ccccc2)N1c1ccccc1` (centres unmarked) has a pIC50 of 5.09 (SLC22A11 (Homo sapiens, UniProt Q9NSA0); transporter uptake, inhibitor, radiometric).
`Fc1ccccc1Cc1nc(-c2nc(C(F)(F)F)n[nH]2)cn2ccnc12` — result for “delayed maze test moves”: -1.6 (healthy volunteers; 20 mg, single ascending dose, unit not given; relative to: placebo).
`C[C@H]1O[C@@H](O[C@H]2[C@@H](O)C[C@H](O[C@H]3[C@@H](O)C[C@H](O[C@H]4CC[C@@]5(C)[C@H](CC[C@@H]6[C@@H]5CC[C@]5(C)[C@@H](C7=CC(=O)OC7)CC[C@]65O)C4)O[C@@H]3C)O[C@@H]2C)C[C@H](O)[C@@H]1O` has an activity score of 6.3 (human iPSC-derived cardiomyocytes; MyBP-C/MYH ratio, plate-normalised SD score; concentration not given, primary screen; direction not given).

Some of these lines once more (series 4):
`CC(C)NCC(O)c1ccc(O)c(O)c1` (centres unmarked) gave a GFP-positive cells of 110%.
With `COc1ccc(-c2ccc3cc(C(=O)O)ccc3c2)cc1C12CC3CC(CC(C3)C1)C2` the GFP-positive cells was 83%.
For `Cc1ccc(C)c(OCCCC(C)(C)C(=O)O)c1`, the GFP-positive cells was 107%.
